Experimental data from different studies.
Every numbered part comes from another study and shows a few of its results, in no order. Changes are numbered by the printed parent chain.
Chain of UniProt Q9C0B0 (30-357, looked up): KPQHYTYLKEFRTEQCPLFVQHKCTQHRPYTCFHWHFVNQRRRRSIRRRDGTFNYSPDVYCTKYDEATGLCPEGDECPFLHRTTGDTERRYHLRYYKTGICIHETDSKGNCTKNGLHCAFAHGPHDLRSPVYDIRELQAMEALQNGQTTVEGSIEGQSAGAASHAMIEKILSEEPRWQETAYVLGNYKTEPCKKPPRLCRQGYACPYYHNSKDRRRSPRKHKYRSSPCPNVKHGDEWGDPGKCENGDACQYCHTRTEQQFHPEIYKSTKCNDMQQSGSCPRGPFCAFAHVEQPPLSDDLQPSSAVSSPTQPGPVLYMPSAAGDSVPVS

Sample 1 — target: CCNB3, cyclin fold, Cln2 fusion (human); method: yeast growth competition, sequencing; matrix: yeast; notes: strong parent motif; relative to: not given; reading: higher = stronger binding
Parent: SCAPER docking peptide (human); SNARRSLNFGGST
Variant | normalised enrichment score
S1P | 1.13
F9W | 1.26
T13S | 1.49
G11P | 1.01
G10K | 0.738
N8P | 0.699
R5I | 0.399
S12F | 1.25
S6Y | 0.727
G10A | 1.43
N8C | 0.376
G11Y | 0.895
R5A L7A | -0.0759
N2A | 1.61
S6T | 2.88
S6M | 1.08
F9P | -0.156
S6V | 2.28
F9N | -0.291
R4L | -0.398
S6C | 1.16

Sample 2 — method: protein-binding microarray; molecule type: double-stranded DNA, one strand shown; matrix: in vitro; tested at: 250 nM; notes: 60-bp whole probe; together with: salmon DNA 0.4 mg/ml; relative to: random background probes; reading: higher = stronger binding; shared flanks, not repeated: GCCTAGCAC … GTCTTGATTCGCTTGACGCTGCTG
Target: Interferon regulatory factor 7, full length, phosphomimetic (IRF7, Homo sapiens, UniProt Q92985, residues 1-503, S101K/S471D/S472D/S475D/S476D/S477D/S483D/S484D/S487D)
Residues (chain): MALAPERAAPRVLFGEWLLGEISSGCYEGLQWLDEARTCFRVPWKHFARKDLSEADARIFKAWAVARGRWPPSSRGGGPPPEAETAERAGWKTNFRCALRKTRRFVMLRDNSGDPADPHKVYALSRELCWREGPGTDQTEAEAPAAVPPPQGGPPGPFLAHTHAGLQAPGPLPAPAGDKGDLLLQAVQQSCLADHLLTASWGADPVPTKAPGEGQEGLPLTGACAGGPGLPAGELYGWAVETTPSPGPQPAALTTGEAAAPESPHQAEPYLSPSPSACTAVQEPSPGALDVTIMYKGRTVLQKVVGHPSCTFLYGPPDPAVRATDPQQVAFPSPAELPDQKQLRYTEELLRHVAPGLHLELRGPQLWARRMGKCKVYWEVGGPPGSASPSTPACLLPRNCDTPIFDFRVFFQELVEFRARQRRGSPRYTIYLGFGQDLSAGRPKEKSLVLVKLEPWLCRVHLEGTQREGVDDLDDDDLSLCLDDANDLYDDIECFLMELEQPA
Oligonucleotide | log fluorescence
TTAGATATCAGTATCTATTAGTGCTAG | 0.353 z-score
TTAGATCTCAGACGGGATTAGTGCTAG | -0.103 z-score
GACGGTTTCCTTATCGTGACGTGCTAG | 2.81 z-score
GACGGTATCGGGACTGGGGTCGTGCTA | -0.302 z-score
GACGATCTCAGACTGGAGGCGTGCTAG | -0.322 z-score
GAAAATCCCACATTTGATAAAGTGCTA | 0.765 z-score
TCACCTTGGGCTCTAGGACTGTGCTAG | -0.218 z-score
CTAGGTTTCCTACTGCTTTAGTGCTAG | 1.43 z-score
GACGGACTGGGGCTGGGGACGTGCTAG | -0.455 z-score
ATTGGTCTTCACTTGGCAAAGTGCTAG | 0.408 z-score
TTAGGTATCGATACTGGGTTAGTGCTA | 0.838 z-score
TACGAACTGGGGACTGGAGACGTGCTA | -0.563 z-score
TTGGGTATCCTTATCCTTTAGTGCTAG | -0.0976 z-score
GACCTTTTTAAGATCTGTGCGTGCTAG | 0.892 z-score
GACGATATCAGTATCGATACGTGCTAG | 0.374 z-score
TTAGAGATCAGTATCGATTAGTGCTAG | 0.489 z-score
GACGAACTGAGTTTCGAGTCGTGCTAG | 8 z-score
TTTGATATCAGTCTCGATTAGTGCTAG | 1.41 z-score
GACGGTCTTCTTCTCCTGACGTGCTAG | 0.265 z-score

Sample 3 — method: protein-binding microarray; molecule type: double-stranded DNA, one strand shown; matrix: in vitro; tested at: not given; reading: higher = stronger binding
Target: Myc proto-oncogene protein, bHLH-zipper, MAX partner unstated (MYC, Homo sapiens, UniProt P01106, residues 368-449)
Chain of UniProt P01106 (368-449, looked up): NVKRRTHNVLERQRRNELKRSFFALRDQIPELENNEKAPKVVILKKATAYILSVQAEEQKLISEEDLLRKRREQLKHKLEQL
Notes: k-mer, scored over probes, only values ≥0.25
Oligonucleotide | E-score
ACCTCCCC | 0.299
CGTGGACA | 0.384
ACCATGCA | 0.399
CCGCCCAC | 0.276
CGAGCACG | 0.348
CACGTCCA | 0.269
CATGCCTC | 0.343
GTGGCGAA | 0.272
ACATGCAA | 0.273
GCACGCGC | 0.461
ATGGGGAG | 0.25
GCGTGCTA | 0.432
CACGCCGC | 0.418
CCACGTGA | 0.482

Sample 4 — method: RNA Bind-n-Seq; molecule type: RNA; matrix: in vitro; tested at: 365 nM; relative to: no-protein control; reading: higher = stronger binding
Target: RNA binding protein fox-1 homolog 2, RRM domain, GST-SBP tag (RBFOX2, Homo sapiens, UniProt O43251-10, residues 100-194)
Notes: natural RNA segment, single round, ends assumed
Construct (chain): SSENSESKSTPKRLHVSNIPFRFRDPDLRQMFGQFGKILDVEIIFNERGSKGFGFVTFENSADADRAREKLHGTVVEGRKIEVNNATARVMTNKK
Oligonucleotide | RBNS enrichment (R)
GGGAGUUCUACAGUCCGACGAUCUGUGCUUUUUAAUUUCUGCUUGAAUGUUUGUCCUGCUGUGUUGCAGCUUCUAAAGACAUUGUCACCGAGUGUGUGUGACUCAAAGAUCAAGAGUGAGGCUAAACUGCGACUGGAAUUCUCGGGUGCCAA | 0.612
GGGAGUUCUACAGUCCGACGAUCAGGUUGCACCCUUAAGAGUAUUCAGAGAGCAUCAAAAGGAGCCCACACCUUCAGCAGUGAAGGAUUCUAACACAGGGAAUCUGCAGUUUGUAGCAGAAUGGUAUUUUCCUUGGAAUUCUCGGGUGCCAA | 0.465
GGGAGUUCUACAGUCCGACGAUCAAACUGUUAACCAUGUACAAUAUUGGAAAUAGGCUGAUUUUGAUGUAUUGCCUAUUCUUCAAGUACACAAAAACAUUUUGGAGGCCUCAAUUAUGAGUGGCAGAGCUUUCUGGAAUUCUCGGGUGCCAA | 0.291
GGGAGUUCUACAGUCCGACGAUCACAAUCAUUUUAUGGAAGAUGUGUGAUAAUCUGUUUUUACUGGUAUUAAUAAACACAUACAAUGAAGAAAACAGAUAACAAAUUUUAAGACCAAGGUAAGAUACUCAAUCUGGAAUUCUCGGGUGCCAA | 0.316
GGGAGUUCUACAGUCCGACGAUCGUAUAUACCCAAAGGACUAUAAAUCAUGCUGCUAUAAAGACACAUGCACACGUAUGUUUAUUGUGGCAUUAUUCACAAUAGCAAAGACUUGGAACCAACCCAAAUGUCCAUGGAAUUCUCGGGUGCCAA | 0.889
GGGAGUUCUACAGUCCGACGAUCAGCAGACGUUAUUUUCCGUGAUUCUUAGGACUACCUGUCUGUCACGAAUCUGCCCACGGUAGUCAGGUCCCCUGAGCUCUGGACUGGAAGUGGAACUGUGUUCCUGCCAGUGGAAUUCUCGGGUGCCAA | 0.294
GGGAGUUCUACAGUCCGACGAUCCAGGCGCGCACCGCCCAACCCCCACCUCCCGGUGUAUGCAGUGGUGAUGCCUAAAGGAAUGUCACGCAGUUUUCGGUCUGUGUCGCUUGUUGACGCCGGCAGACAGUGUAUGGAAUUCUCGGGUGCCAA | 0.603
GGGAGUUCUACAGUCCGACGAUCCCUGGCUGGCUGAGGUGGUGUGAUAGAGGUCUGUGGUAAACAGCAGAACUUAGGGUGCAGACUGACUUAUUGAUUUCCACCUUGGCAAUGGCAAUAAAGCAUUUUGUAAGUGGAAUUCUCGGGUGCCAA | 1.7
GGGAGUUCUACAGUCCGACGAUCGUCUGCCAAAGAUACAAGAAUAUGCAAAGUCCCUCUUACCCCCCUCCUUCCCUCAAGUCUUAGUUGGUUUGAGAGCCAGGGAUAUGGAUCCAGGGUGCUGUUGCAGGGUCUGGAAUUCUCGGGUGCCAA | 0.547
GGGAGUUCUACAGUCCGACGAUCGGCAUCUACAGGGUUACUGUUUGCAUUUUCUACCCACAAGCAGAAGGAGACAGUGACAAUGGGCAGUGGAUAGCCCUCACUCGUGAGUGUUUAAUGUUGCAGCAAACUCAUGGAAUUCUCGGGUGCCAA | 0.493
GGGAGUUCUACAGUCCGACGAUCGUGCUUUCUAACAGCUUCUGGGUGCAGAUUUUCUUCGGCAUCCUUUUGCACUCAGCUUAUUACAGGUAGGUAGUGCUUAAGAAAAGUCAUGGAGGACUAAAGCCUAAGUCUGGAAUUCUCGGGUGCCAA | 0.329
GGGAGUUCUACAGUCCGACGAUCAAAUAGCCUCUCUUUCCUGGGAACCCUCUGUGGUCCUCUCUAAAAGACCCAGAUAUACUGUUAUGGCCAUCUAUCCCAGCCCCUUCCACCCUAUGCUCAACCCUGCUGGCUGGAAUUCUCGGGUGCCAA | 0.385

Sample 5 — method: protein binding microarray; molecule type: double-stranded DNA, one strand shown; matrix: in vitro; tested at: not given; relative to: not given; reading: higher = stronger binding
Target: Histone acetyltransferase KAT6A, winged helix 1, GST fusion (KAT6A, Homo sapiens, UniProt Q92794, residues 1-85)
Notes: 8-mer, flanks averaged, mean of 2 arrays, mostly near background
Residues (chain): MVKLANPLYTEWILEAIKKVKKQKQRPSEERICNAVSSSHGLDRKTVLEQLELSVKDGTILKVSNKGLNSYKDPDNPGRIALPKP
Oligonucleotide | E-score
CGAGTAGA | 0.00246
GTTAGGGA | 0.00938
ACGTCGGC | 0.299
AAGAGGCA | -0.192
AAGGACGA | -0.183
CCGGCCGC | 0.443
CACCGTAA | 0.0617
AACGGTGG | 0.00504
GTATATAC | 0.0335
TCGGTTCA | -0.0158
CTTTTAAA | 0.0437
ATCACTTA | -0.126
AAGGCAAG | -0.358
CCAAGAGA | -0.18
ACTGGGCT | -0.31
GAACCTTC | -0.103
AGGTAGTC | -0.186
CGGAATTA | 0.094
ATGGGTGA | -0.157
ACCATCCC | -0.112
AGGGCGTC | 0.239
AGCTACTG | -0.102
CAGTGATC | -0.0374
CCCATTGC | -0.0601
GTTTCTCA | -0.19

Sample 6 — method: universal PBM; molecule type: double-stranded DNA, one strand shown; matrix: in vitro; tested at: 600 nM; reading: higher = stronger binding
Target: Sal-like protein 4, full length isoform A (SALL4, Homo sapiens, UniProt Q9UJQ4, residues 1-1053)
Chain of UniProt Q9UJQ4 (whole entry, looked up): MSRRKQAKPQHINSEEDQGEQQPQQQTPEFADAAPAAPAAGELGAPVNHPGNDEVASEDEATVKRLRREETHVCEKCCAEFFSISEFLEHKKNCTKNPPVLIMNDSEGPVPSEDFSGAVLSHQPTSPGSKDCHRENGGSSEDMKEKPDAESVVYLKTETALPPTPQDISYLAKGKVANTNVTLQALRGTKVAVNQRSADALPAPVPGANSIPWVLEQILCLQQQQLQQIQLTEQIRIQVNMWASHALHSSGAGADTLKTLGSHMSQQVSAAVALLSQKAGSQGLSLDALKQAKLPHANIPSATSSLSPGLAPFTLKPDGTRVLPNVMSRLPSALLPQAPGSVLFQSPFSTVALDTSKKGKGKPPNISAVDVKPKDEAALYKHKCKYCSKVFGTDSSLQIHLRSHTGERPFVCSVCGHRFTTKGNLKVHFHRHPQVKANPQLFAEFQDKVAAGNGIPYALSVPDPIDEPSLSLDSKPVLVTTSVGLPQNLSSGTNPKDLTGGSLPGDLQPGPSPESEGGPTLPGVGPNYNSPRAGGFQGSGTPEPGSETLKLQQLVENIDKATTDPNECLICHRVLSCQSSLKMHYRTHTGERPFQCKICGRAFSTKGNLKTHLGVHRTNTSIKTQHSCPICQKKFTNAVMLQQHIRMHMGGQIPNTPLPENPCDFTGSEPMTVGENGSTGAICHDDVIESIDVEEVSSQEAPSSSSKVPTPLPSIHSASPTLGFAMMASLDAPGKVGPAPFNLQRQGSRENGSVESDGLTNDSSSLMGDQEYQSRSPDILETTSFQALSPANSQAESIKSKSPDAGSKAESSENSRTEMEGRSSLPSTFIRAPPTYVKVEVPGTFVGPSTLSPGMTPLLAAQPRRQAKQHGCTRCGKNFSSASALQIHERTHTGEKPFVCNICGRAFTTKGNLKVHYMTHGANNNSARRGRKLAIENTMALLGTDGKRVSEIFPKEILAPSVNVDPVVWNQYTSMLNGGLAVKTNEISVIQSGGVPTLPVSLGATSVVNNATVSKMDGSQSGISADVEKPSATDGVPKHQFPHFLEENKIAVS
Notes: 8-mer, flanks averaged, mean of replicates
Oligonucleotide | E-score
ACCAAGTG | -0.0704
CACGTATC | -0.0583
ACGGATGG | -0.0294
CCACATCC | -0.149
CACGTGTC | -0.15
GAACCACA | 0.0351
CCTCGTCG | -0.125
AGTCGGAA | -0.139
GATCGTCC | -0.164
CCGCGTGC | -0.313
GATGTGTA | 0.0878
AATGCCCT | -0.0746
GAAATGTA | 0.192
CGTACTGC | 0.0411
GAGCTCGA | -0.122
CGCGAGCG | -0.203
TGGCGGAA | -0.227

Further values, each from its own experiment
Oligonucleotide | target | assay | test system | setting | how to read | endpoint | result
GGGAGUUCUACAGUCCGACGAUCAAGCCAUCUUUUCCACAUUUUCUGUAAAUAAUGGAUAAUCAUUUUAAAAAUUUUUAUUUUCCGUGCUGUUUUAACAAUGCCGACCGAUCAUAAAUGUACUUGCUGAAUUCAAUCAUUUUUCAACAGAGGAUUGAGCAUCA | RING finger protein unkempt homolog, zinc fingers 1-6, SBP tag (UNK, Homo sapiens, UniProt Q9C0B0, residues 30-357) | RNA Bind-n-Seq | RNA, in vitro | 100 nM, RNA with constant flanks, ends assumed | relative to: input RNA pool, higher = stronger binding | bound/input enrichment | 0.58 ratio

Repeated from above (sample 5):
Oligonucleotide | E-score
AGGTAGTC | -0.186
CGGAATTA | 0.094
ATGGGTGA | -0.157
ACCATCCC | -0.112
AGGGCGTC | 0.239
AGCTACTG | -0.102
CAGTGATC | -0.0374
CCCATTGC | -0.0601
GTTTCTCA | -0.19
